Measurements collected from several papers.
Each line is one published result; not all experiments were run side by side. ± gives the spread as reported. Where no end group is shown, it is not given here. No end group written: not given here. [ ]: non-standard residue; d: D form. *: point of attachment.
B1: TIMP4 (Homo sapiens, UniProt Q99727); sequence looked up; chain CSCAPAHPQQHICHSALVIRAKISSEKVVPASADPADTEKMLRYEIKQIKMFKGFEKVKDVQYIYTPFDSSLCGVKLEANSQKQYLLTGQVLSDGKVFIHLCNYIEPWEDLSLVQRESLNHHYHLNCGCQITTCYTVPCTISAPNECLWTDWLLERKLYGYQAQHYVCMKHVDGTCSWYRGHLPLRKEFVDIVQP
B2: HSPB8 (Homo sapiens, UniProt Q9UJY1); sequence looked up; chain MADGQMPFSCHYPSRLRRDPFRDSPLSSRLLDDGFGMDPFPDDLTASWPDWALPRLSSAWPGTLRSGMVPRGPTATARFGVPAEGRTPPPFPGEPWKVCVNVHSFKPEELMVKTKDGYVEVSGKHEEKQQEGGIVSKNFTKKIQLPAEVDPVTVFASLSPEGLLIIEAPQVPPYSTFGESSFNNELPQDSQEVTCT
B3: NLRP3 742-1036 (Homo sapiens, UniProt Q96P20); sequence looked up; chain SLTELDLSDNSLGDPGMRVLCETLQHPGCNIRRLWLGRCGLSHECCFDISLVLSSNQKLVELDLSDNALGDFGIRLLCVGLKHLLCNLKKLWLVSCCLTSACCQDLASVLSTSHSLTRLYVGENALGDSGVAILCEKAKNPQCNLQKLGLVNSGLTSVCCSALSSVLSTNQNLTHLYLRGNTLGDKGIKLLCEGLLHPDCKLQVLELDNCNLTSHCCWDLSTLLTSSQSLRKLSLGNNDLGDLGVMMFCEVLKQQSCLLQNLGLSEMYFNYETKSALETLQEEKPELTVVFEPSW
B4: MYH7 839-968 (Homo sapiens, UniProt P12883); sequence looked up; chain LLKSAEREKEMASMKEEFTRLKEALEKSEARRKELEEKMVSLLQEKNDLQLQVQAEQDNLADAEERCDQLIKNKIQLEAKVKEMNERLEDEEEMNAELTAKKRKLEDECSELKRDIDDLELTLAKVEKEK
B5: Reln 1948-2662 (Mus musculus, UniProt Q60841); chain DGNNLNNPVLLLDTFDFGPREDNWFFYPGGNIGLYCPYSSKGAPEEDSAMVFVSNEVGEHSITTRDLSVNENTIIQFEINVGCSTDSSSADPVRLEFSRDFGATWHLLLPLCYHSSSLVSSLCSTEHHPSSTYYAGTTQGWRREVVHFGKLHLCGSVRFRWYQGFYPAGSQPVTWAIDNVYIGPQCEEMCYGHGSCINGTKCICDPGYSGPTCKISTKNPDFLKDDFEGQLESDRFLLMSGGKPSRKCGILSSGNNLFFNEDGLRMLVTRDLDLSHARFVQFFMRLGCGKGVPDPRSQPVLLQYSLNGGLSWSLLQEFLFSNSSNVGRYIALEMPLKARSGSTRLRWWQPSENGHFYSPWVIDQILIGGNISGNTVLEDDFSTLDSRKWLLHPGGTKMPVCGSTGDALVFIEKASTRYVVTTDIAVNEDSFLQIDFAASCSVTDSCYAIELEYSVDLGLSWHPLVRDCLPTNVECSRYHLQRILVSDTFNKWTRITLPLPSYTRSQATRFRWHQPAPFDKQQTWAIDNVYIGDGCLDMCSGHGRCVQGSCVCDEQWGGLYCDEPETSLPTQLKDNFNRAPSNQNWLTVSGGKLSTVCGAVASGLALHFSGGCSRLLVTVDLNLTNAEFIQFYFMYGCLITPSNRNQGVLLEYSVNGGITWNLLMEIFYDQYSKPGFVNILLPPDAKEIATRFRWWQPRHDGLDQNDWAIDNVLIS
B6: GORASP1 PDZ domain (Homo sapiens); chain EGFHLHGVQENSPAQQAGLEPYFDFIITIGHSRLNKENDTLKALLKANVEKPVKLEVFNMKTMRVREVEVVPSNMWGGQGLLGASVRFCSF
B7: rpn10 (Schizosaccharomyces pombe, UniProt O94444); sequence looked up; chain MVLEATMILIDNSEWMINGDYIPTRFEAQKDTVHMIFNQKINDNPENMCGLMTIGDNSPQVLSTLTRDYGKFLSAMHDLPVRGNAKFGDGIQIAQLALKHRENKIQRQRIVAFVGSPIVEDEKNLIRLAKRMKKNNVAIDIIHIGELQNESALQHFIDAANSSDSCHLVSIPPSPQLLSDLVNQSPIGQGVVASQNQFEYGVDPNLDVELALALELSMAEERARQEVAAQKSSEETEDKKMQE
Sequence of UniProt Q9BYN0 (whole entry, looked up): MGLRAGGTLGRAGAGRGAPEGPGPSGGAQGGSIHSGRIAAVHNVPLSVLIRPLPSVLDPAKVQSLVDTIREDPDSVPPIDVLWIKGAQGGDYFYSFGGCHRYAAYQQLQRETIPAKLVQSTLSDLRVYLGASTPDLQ
Sequence of UniProt P52917 (whole entry, looked up): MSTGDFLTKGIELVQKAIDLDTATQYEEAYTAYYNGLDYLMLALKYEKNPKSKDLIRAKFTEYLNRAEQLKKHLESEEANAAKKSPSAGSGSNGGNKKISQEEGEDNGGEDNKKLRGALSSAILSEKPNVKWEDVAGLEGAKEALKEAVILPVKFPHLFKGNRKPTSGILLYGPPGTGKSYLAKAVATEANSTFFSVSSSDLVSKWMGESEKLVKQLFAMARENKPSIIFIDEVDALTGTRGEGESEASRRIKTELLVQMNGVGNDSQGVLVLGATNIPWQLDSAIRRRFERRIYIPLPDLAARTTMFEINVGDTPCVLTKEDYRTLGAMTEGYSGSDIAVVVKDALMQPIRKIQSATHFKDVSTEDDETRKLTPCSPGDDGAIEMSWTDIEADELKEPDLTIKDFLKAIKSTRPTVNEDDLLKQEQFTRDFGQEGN
Sequence of UniProt O15392 (whole entry, looked up): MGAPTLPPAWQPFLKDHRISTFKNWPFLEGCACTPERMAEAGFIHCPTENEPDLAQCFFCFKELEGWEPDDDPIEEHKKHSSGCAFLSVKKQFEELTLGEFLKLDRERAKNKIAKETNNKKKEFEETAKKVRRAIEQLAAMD
Sequence of UniProt Q05397 (whole entry, unmodified, looked up): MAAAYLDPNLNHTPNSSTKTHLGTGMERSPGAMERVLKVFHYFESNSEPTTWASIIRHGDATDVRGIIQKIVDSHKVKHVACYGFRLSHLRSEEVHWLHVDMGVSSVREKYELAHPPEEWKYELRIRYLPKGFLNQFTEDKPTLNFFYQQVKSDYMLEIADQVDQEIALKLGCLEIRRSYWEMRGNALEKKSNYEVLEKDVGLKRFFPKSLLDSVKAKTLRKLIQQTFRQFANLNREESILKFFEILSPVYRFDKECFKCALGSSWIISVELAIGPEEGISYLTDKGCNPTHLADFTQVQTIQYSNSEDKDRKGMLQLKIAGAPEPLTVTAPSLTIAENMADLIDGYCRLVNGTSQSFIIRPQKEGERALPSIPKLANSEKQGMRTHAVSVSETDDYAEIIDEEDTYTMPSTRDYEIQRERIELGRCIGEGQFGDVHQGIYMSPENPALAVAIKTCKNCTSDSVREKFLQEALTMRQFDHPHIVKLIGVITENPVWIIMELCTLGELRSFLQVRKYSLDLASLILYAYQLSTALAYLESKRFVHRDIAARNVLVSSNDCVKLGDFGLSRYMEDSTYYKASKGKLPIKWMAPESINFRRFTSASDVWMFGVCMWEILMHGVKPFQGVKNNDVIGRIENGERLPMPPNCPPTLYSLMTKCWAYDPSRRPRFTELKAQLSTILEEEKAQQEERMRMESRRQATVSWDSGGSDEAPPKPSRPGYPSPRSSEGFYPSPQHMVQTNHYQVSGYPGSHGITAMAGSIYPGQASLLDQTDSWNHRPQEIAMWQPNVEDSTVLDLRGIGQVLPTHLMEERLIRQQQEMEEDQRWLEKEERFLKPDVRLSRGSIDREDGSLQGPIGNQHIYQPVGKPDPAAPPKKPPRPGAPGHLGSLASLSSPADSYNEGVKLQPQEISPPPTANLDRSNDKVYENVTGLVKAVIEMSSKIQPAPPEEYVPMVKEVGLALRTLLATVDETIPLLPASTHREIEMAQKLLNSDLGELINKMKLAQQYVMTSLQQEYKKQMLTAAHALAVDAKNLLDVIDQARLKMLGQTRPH
Sequence of UniProt O14965 (whole entry, looked up): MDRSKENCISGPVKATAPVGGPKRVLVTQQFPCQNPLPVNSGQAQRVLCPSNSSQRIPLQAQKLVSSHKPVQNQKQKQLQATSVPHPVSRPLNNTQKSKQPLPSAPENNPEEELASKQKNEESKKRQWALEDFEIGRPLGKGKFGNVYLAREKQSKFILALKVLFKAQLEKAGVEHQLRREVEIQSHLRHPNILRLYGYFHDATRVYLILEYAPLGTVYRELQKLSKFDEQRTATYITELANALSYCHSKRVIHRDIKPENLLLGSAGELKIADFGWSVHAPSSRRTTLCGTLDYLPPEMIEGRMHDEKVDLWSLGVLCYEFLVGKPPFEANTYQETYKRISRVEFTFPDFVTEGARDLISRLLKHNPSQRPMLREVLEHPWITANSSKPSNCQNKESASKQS
Sequence of UniProt Q16539 (whole entry, looked up): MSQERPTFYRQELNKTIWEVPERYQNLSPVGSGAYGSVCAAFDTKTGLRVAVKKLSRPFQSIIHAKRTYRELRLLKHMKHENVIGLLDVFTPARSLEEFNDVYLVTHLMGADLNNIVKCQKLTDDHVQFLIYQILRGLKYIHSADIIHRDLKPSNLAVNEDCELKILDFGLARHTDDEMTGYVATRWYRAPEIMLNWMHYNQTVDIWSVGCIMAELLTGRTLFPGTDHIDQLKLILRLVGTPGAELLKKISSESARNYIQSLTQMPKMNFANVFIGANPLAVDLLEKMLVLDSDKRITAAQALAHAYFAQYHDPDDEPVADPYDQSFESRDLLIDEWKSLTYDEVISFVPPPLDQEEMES
Sequence of UniProt P26447 (whole entry, looked up): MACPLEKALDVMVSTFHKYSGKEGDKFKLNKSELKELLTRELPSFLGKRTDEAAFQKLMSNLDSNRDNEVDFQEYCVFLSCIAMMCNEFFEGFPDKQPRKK
Sequence of UniProt P50524 (whole entry, looked up): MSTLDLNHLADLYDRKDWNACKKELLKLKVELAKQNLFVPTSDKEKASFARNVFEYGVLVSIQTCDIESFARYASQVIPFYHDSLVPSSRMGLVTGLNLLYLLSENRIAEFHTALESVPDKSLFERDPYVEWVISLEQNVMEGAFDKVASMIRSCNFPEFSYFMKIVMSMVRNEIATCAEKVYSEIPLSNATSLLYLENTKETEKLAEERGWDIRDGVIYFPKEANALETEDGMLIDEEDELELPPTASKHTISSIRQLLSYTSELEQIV
Sequence of UniProt P45973 (whole entry, looked up): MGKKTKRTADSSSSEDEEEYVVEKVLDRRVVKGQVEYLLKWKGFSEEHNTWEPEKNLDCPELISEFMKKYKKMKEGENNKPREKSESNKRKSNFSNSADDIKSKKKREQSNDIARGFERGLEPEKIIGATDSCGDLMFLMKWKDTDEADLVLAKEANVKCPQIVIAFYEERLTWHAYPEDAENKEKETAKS
Sequence of UniProt O95817 (whole entry, looked up): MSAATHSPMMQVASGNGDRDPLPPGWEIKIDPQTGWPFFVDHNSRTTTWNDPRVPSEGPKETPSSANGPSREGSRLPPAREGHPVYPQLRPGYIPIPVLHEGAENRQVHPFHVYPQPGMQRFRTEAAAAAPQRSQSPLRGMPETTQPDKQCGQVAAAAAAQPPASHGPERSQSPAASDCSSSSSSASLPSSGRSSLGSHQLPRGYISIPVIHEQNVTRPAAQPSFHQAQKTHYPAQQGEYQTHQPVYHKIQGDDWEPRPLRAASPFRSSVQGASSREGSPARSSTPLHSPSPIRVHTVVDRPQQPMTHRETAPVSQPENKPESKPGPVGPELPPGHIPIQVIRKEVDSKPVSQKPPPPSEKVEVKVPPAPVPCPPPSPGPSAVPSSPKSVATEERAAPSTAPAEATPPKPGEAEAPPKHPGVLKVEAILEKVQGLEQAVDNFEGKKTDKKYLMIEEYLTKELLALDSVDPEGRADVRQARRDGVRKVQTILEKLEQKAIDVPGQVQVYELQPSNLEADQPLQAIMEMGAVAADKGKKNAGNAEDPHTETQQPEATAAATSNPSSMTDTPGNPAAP
Sequence of UniProt O60656 (whole entry, looked up): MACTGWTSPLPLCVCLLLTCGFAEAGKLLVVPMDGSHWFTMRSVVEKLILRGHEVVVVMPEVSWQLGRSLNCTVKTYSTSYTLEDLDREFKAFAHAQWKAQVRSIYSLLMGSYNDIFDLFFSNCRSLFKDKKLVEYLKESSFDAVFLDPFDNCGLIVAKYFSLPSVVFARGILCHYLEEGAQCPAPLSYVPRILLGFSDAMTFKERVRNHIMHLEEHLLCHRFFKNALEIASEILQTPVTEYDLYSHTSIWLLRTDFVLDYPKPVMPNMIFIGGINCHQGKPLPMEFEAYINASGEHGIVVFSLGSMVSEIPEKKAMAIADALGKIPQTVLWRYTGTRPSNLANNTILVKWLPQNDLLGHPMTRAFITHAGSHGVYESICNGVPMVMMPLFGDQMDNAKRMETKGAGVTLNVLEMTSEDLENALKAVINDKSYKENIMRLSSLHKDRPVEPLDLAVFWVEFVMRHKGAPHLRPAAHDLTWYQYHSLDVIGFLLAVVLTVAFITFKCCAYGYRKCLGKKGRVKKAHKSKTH
Sequence of UniProt P35813 (whole entry, looked up): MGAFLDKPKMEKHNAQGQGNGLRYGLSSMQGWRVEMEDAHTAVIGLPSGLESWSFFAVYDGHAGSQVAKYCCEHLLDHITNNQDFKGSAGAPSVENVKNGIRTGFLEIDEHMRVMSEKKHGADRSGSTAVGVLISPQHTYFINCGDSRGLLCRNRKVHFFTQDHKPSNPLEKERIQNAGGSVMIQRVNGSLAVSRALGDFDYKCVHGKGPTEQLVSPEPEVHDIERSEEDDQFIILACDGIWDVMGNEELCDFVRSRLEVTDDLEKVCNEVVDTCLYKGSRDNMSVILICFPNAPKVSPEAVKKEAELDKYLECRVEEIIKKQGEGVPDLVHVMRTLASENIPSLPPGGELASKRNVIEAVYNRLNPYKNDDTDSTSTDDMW

For `CGSFPPWVKKTEV (peptide; cyclic)`, the Kd was 0.0653 µM (DLG4 309-422 (Homo sapiens, UniProt P78352); SPR; peptide).
With `B1 (TIMP4)` the Kd was 0.024 ± 0.01 µM (LRP1 (Homo sapiens, UniProt Q07954); SPR; 25 °C).
The Kd of `S100A4, QSY 35 on amines (Homo sapiens, UniProt P26447)` is reported as 0.0609 µM (SRXN1, Alexa 546 label (Homo sapiens, UniProt Q9BYN0); FRET; apparent, with Ca2+, with: Ca2+).
`MGLQERRGSNVSLTLDM (PTPN5 residues 214-230)` has a Kd of 3.57 ± 0.208 µM (MAPK14 unphosphorylated (UniProt Q16539); ITC; peptide; 25 °C).
For `UGT1A9 (Homo sapiens, UniProt O60656)`, the Vmax was 0.00749 µmol/min/mg (COc1ccc(-c2oc3cc(O)cc(O)c3c(=O)c2OC)cc1O; steady-state kinetics; pH 7.4, 37 °C).
The Kd of `SYK C-terminal SH2 domain` is reported as 2.4 µM (CLEC1B fragment, pY7 (Homo sapiens); SPR; equilibrium Kd).
For `EDFRSGSEAFDLIAQDEEEFNKEHQFIQEEN (CEP192 506-536 (Homo sapiens, UniProt Q8TEP8))`, the Kd was 5.3 ± 0.6 µM (AURKA kinase domain 123-403, phosphorylated (Homo sapiens, UniProt O14965); ITC; peptide).
`B2 (HSPB8)` has a Kd of 1.2 µM (BAG3 (Homo sapiens, UniProt O95817); ITC; 25 °C, relative values).
`AR[pT][Lys(Me3)]QTARKSTG (histone H3 2-13 (UniProt P68431); pT3, K4me3; pT = C[C@@H](OP(=O)(O)O)[C@H](N)C(=O)O; Lys(Me3) = C[N+](C)(C)CCCC[C@H](N)C(=O)O; sequence looked up)` gave a Kd of 11.5 ± 1 µM (BIRC5 1-142 (Homo sapiens, UniProt O15392); ITC; peptide; pH 7.2).
`B3 (NLRP3 742-1036)` has a Kd of 0.882 µM (PPM1A, RED-NHS dye label (Homo sapiens, UniProt P35813); MST; 25 °C).
For `B4 (MYH7 839-968)`, the Kd was 45 ± 10 µM (MYH7/MYL3 sS1 1-808 (Homo sapiens); MST; pH 7.5, KCl 100 mM, Hill fit, with: ADP 500 µM).
The Kd of `TKDELTKIMDRASKIEQIQKLAKYAISALNYEALPTAKDELTKALDLLNSI (VTA1 280-330 D312A (Saccharomyces cerevisiae, UniProt Q06263); sequence looked up)` is reported as > 1000 µM (VPS4 299-415 (Saccharomyces cerevisiae, UniProt P52917); SPR; pH 7.0, NaCl 150 mM, equilibrium fit).
For `FN1 (Homo sapiens)`, the Kd was 0.01 µM (ligB 631-1417 (Leptospira interrogans, UniProt C0J1Q6); ITC; pH 7.5, 25 °C).
The Kd of `B5 (Reln 1948-2662)` is reported as 0.012 µM (LRP8 ectodomain, lacking LA4-6 (Homo sapiens); SPR; steady-state affinity).
`ARTKQTARKSTGGK (histone H3 2-15 (Homo sapiens, UniProt P68431); K9me3; sequence looked up)` gave a Kd of 11.6 ± 1.2 µM (CBX5, C-terminal Atto532 label, C-terminal amide (Homo sapiens, UniProt P45973); MST; peptide).
For `{5‑TAMRA-Ahx}-NLSELDRLLDELN (PXN residues 141-153 L10D; N-terminal TAMRA, aminohexanoyl linker; 5‑TAMRA = CN(C)c1ccc2c(-c3ccc(C(=O)*)cc3C(=O)[O-])c3ccc(N(C)C)cc3[o+]c2c1; Ahx = NCCCCCC(=O)O)`, the Kd was 266 µM (PTK2 892-1052 K955A/E948A/R962A/I936D (Homo sapiens, UniProt Q05397); fluorescence polarisation; peptide).
`APADGEGGSELQPKNKRMTISRLVLEEDSQSTEPSAGLNSSQE (TERF2 382-424 (Homo sapiens, UniProt Q15554); sequence looked up)` has a Kd of 0.176 µM (TINF2/ACD TPP1 486-544 (Homo sapiens); ITC).
The Kd of `B6 (GORASP1 PDZ domain)` is reported as 53.8 µM (RPS6KA1 fragment, pS732 (Homo sapiens); holdup assay; estimated).
`B7 (rpn10)` gave a Kd of 17.8 ± 2.7 µM (rpn12 1-250, Oregon Green label (Schizosaccharomyces pombe, UniProt P50524); fluorescence polarization; 0-370 µM, 20 min, pH 7.4, 25 °C, NaCl 150 mM).

Some of these lines once more:
For `B4 (MYH7 839-968)`, the Kd was 45 ± 10 µM (MYH7/MYL3 sS1 1-808 (Homo sapiens); MST; pH 7.5, KCl 100 mM, Hill fit, with: ADP 500 µM).
The Kd of `TKDELTKIMDRASKIEQIQKLAKYAISALNYEALPTAKDELTKALDLLNSI (VTA1 280-330 D312A (Saccharomyces cerevisiae, UniProt Q06263); sequence looked up)` is reported as > 1000 µM (VPS4 299-415 (Saccharomyces cerevisiae, UniProt P52917); SPR; pH 7.0, NaCl 150 mM, equilibrium fit).
